Assay results from different studies.
Each numbered part is a random draw from the data of one study; scales do not carry over between parts. Substitutions count along the parent as printed.
Sequence of UniProt O15294 (whole entry, looked up): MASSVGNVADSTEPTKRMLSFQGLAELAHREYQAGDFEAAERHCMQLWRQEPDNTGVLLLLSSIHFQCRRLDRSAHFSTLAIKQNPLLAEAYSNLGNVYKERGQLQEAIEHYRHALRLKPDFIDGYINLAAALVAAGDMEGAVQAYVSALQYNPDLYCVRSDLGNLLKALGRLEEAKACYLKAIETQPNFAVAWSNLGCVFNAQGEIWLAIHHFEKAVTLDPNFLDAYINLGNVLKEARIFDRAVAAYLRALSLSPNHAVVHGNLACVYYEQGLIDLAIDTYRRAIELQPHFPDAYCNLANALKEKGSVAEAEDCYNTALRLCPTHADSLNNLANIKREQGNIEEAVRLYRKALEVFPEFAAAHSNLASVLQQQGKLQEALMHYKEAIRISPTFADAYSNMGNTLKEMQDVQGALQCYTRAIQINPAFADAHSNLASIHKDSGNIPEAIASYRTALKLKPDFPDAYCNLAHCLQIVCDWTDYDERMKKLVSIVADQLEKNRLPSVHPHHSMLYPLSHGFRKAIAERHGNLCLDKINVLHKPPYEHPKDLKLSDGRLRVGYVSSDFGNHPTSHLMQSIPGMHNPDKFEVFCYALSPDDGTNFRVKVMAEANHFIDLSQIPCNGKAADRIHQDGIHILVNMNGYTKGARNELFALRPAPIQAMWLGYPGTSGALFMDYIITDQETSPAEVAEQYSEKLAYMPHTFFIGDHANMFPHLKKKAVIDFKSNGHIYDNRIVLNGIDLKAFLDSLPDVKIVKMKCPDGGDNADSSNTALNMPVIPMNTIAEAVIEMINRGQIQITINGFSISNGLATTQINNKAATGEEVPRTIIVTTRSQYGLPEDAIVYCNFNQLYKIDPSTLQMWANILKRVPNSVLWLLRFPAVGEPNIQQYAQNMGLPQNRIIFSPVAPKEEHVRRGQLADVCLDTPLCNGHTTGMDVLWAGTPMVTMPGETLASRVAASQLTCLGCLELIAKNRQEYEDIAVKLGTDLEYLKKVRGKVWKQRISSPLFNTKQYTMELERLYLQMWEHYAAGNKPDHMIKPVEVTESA

Series 1
Target: FOSL1, bZIP domain (human)
Technique: DHFR protein complementation
Sample: yeast
Notes: single substitutions, most at no-binding floor
Reference: wild-type JUN-FOS pair
Reading: higher = stronger binding
Parent: JUN, bZIP domain (human); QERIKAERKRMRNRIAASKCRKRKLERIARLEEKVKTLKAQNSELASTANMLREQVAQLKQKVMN; partner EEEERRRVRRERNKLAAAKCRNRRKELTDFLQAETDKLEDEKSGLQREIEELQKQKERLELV
The binding fitness of `Q55Y` is reported as -0.644 natural log.
`T48Y` has a binding fitness of -0.301 natural log.
`L45M` has a binding fitness of -0.727 natural log.
With `K39G` the binding fitness was -1.11 natural log.
The binding fitness of `E32A` is reported as 0.0706 natural log.
`T48D` has a binding fitness of -0.946 natural log.
`L38E` gave a binding fitness of -1.45 natural log.
`K34G` gave a binding fitness of -0.485 natural log.

Series 2
Target: CEP164, C-terminal peptide (human)
Technique: DHFR complementation, deep sequencing
Sample: yeast
Notes: single substitutions, model-inferred values
Reference: wild type
Reading: higher = weaker binding
Parent: PDZK1, PDZ domain 2 (human); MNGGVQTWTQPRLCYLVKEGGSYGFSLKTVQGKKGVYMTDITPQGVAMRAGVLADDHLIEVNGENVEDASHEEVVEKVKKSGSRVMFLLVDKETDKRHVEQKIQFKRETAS; partner HNRVKVYRF
For `K102V`, “binding free energy change” read -0.018 kcal/mol.
`T7K` — result for “binding free energy change”: -0.145 kcal/mol.
For `K34C`, “binding free energy change” read 0.372 kcal/mol.
`G51K` — result for “binding free energy change”: 0.542 kcal/mol.
For `V46A`, “binding free energy change” read 0.249 kcal/mol.
For `V78A`, “binding free energy change” read 1.62 kcal/mol.
For `C14L`, “binding free energy change” read 0.287 kcal/mol.
Under “binding free energy change”, `S70Y` is recorded as 0.0793 kcal/mol.

Other studies, line by line
CCNA2: CCNA2, cyclin fold, Cln2 fusion (human)
P1: viral docking peptide; YKVKRRLVFGADD; partner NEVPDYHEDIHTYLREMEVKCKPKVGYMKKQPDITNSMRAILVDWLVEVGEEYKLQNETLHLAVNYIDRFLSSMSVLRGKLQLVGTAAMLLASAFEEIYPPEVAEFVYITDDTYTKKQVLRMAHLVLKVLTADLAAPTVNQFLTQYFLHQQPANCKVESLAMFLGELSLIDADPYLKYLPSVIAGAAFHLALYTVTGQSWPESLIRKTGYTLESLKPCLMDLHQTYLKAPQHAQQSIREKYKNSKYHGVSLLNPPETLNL
Under “normalised enrichment score”, `P1 V8G` is recorded as 5.72 (CCNA2; yeast growth competition, sequencing; yeast; strong parent motif; reference: not given, higher = stronger binding).
For `MLETTPHHHQRPYAI`, “enrichment fold change” read 2.75 (OGT (Homo sapiens, UniProt O15294); binding, phage display NGS; peptide; concentration not given; reference: input library).
`P1 G10R`: “normalised enrichment score” 5.9 (CCNA2; yeast growth competition, sequencing; yeast; strong parent motif; reference: not given, higher = stronger binding).

Excerpt of the above (series 1):
With `K39G` the binding fitness was -1.11 natural log.
The binding fitness of `Q55Y` is reported as -0.644 natural log.
